{"data": "Experimental data from different studies", "note": "A part holds a random share of what one study measured."}
{"data": "Block 1", "target": "Centromere-binding protein 1, full length, His-tagged (CBF1, Saccharomyces cerevisiae, UniProt P17106, residues 1-351)", "method": "competition protein-binding microarray", "molecule type": "double-stranded DNA, one strand shown", "matrix": "in vitro", "tested at": "2 µM", "notes": "whole 60-bp probe, lowest competitor level", "together with": "Pho4 competitor, 0.05 µM", "direction": "higher = stronger binding", "all sequences stand within": "… GTCTTGATTCGCTTGACGCTGCTG", "chain of UniProt P17106 (whole entry, looked up)": "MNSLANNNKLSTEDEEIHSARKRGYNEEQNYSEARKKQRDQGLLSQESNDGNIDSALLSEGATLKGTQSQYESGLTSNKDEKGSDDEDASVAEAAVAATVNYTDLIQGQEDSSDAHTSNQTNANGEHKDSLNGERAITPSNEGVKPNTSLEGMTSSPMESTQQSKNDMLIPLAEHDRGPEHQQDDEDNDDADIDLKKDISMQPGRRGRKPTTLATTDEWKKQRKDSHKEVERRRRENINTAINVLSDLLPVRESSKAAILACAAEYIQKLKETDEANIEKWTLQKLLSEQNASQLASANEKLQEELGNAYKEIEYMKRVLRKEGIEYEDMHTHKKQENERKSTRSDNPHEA"}
{"Sequence": "CGTCCTAGTGATTGGTTGGTGGGTGCCATGAGGAAG", "fluorescence intensity [a.u.]": 71}
{"Sequence": "ACTTTATACCACCACCACATGCCATACTCACCCTCA", "fluorescence intensity [a.u.]": 80.3}
{"Sequence": "CTTTCCCGATCTTTTCACGTGCTCTTAGCACATTTG", "fluorescence intensity [a.u.]": 1320}
{"Sequence": "TGCGCAACAACTTGCGTGGTGGGTGTATGTCTAGAA", "fluorescence intensity [a.u.]": 73.5}
{"Sequence": "AAATTACTAAGTTTTCACGTGAGATACCCCGTATGA", "fluorescence intensity [a.u.]": 1080}
{"Sequence": "TTTATATTCTTGTTCCTCGTGGCCGAATGGTTACGG", "fluorescence intensity [a.u.]": 101}
{"Sequence": "GCTCTTAAGTCCTCGGTCGTGATGGCGTCAGCCTGT", "fluorescence intensity [a.u.]": 70.6}
{"Sequence": "ACACCAAACCTCTTCCACGTGTTTTTCTTGGTGGAT", "fluorescence intensity [a.u.]": 821}
{"data": "Block 2", "target": "PABPC1L2, full length, GST fusion (mouse, UniProt A0ABA7IW68)", "method": "RNAcompete", "molecule type": "RNA", "matrix": "in vitro", "tested at": "20 nM", "notes": "7-mer, probes averaged, single round", "reference": "mean of 7-mers", "direction": "higher = stronger binding", "Residues (chain)": "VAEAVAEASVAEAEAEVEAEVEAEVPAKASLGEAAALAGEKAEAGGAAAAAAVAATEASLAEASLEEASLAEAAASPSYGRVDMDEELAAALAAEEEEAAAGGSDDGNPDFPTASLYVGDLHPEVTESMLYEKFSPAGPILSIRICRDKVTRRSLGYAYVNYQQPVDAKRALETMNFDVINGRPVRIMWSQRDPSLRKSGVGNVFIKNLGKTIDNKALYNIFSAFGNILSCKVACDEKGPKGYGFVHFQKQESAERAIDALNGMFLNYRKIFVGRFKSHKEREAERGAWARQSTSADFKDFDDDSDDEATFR"}
{"Sequence": "CUGGAUU", "7-mer Z-score": -0.171}
{"Sequence": "AGGCCGC", "7-mer Z-score": -0.124}
{"Sequence": "GGACGGC", "7-mer Z-score": 0.142}
{"Sequence": "GUCUAGG", "7-mer Z-score": -0.213}
{"Sequence": "AUUACGU", "7-mer Z-score": -0.0881}
{"Sequence": "GUUUAUC", "7-mer Z-score": -0.325}
{"Sequence": "GGCAAUA", "7-mer Z-score": 0.175}
{"Sequence": "CGCGCAC", "7-mer Z-score": -0.329}
{"Sequence": "UACCCGC", "7-mer Z-score": -0.345}
{"Sequence": "GCCACUG", "7-mer Z-score": -0.213}
{"data": "Block 3", "target": "TAR DNA-binding protein 43, full length, His tag (TARDBP, Homo sapiens, UniProt Q13148, residues 1-414)", "method": "RNA Bind-n-Seq", "molecule type": "RNA", "matrix": "in vitro", "tested at": "20 nM", "notes": "6-mer, flanks averaged, single round", "together with": "150 mM LiCl", "reference": "input library", "direction": "higher = stronger binding"}
{"Sequence": "UGCACC", "6-mer enrichment (R)": 1.02}
{"Sequence": "AGCAUU", "6-mer enrichment (R)": 0.859}
{"Sequence": "GAGCCG", "6-mer enrichment (R)": 0.967}
{"Sequence": "UGCCGG", "6-mer enrichment (R)": 0.991}
{"Sequence": "CGACUC", "6-mer enrichment (R)": 0.819}
{"Sequence": "CCCGCC", "6-mer enrichment (R)": 1.08}
{"Sequence": "ACUGCA", "6-mer enrichment (R)": 0.856}
{"Sequence": "CAUAAC", "6-mer enrichment (R)": 0.849}
{"Sequence": "AUCGAA", "6-mer enrichment (R)": 0.809}
{"Sequence": "UUCGUA", "6-mer enrichment (R)": 0.896}
{"Sequence": "ACAUGA", "6-mer enrichment (R)": 0.847}
{"data": "Further values, each from its own experiment"}
{"Substance": "PhoQ, residues 284 288 289 292 302 303 TNSAEL", "target": "PhoP, residues 12 14 15 18 19 AQCLL (Escherichia coli, UniProt P23836)", "assay": "Sort-seq, measured: YFP reporter", "test system": "E. coli", "setting": "PhoQ-PhoP variant library, together with: 10 µM Mg2+", "how to read": "reference: high Mg2+ state, higher = stronger signaling", "endpoint": "fold induction", "result": 2.59}
